Measurements of several laboratories.
Parts stem from different laboratories: compare values within a part only. Changes are numbered by the printed parent chain.

Block 1
Target: Transcription factor SOX-2, HMG box (SOX2, Homo sapiens, UniProt P48431, residues 19-118)
Chain of UniProt P48431 (19-118, looked up): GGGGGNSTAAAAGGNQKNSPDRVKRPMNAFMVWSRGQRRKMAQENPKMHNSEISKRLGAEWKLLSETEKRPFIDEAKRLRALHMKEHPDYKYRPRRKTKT
Method: protein-binding microarray
Molecule type: double-stranded DNA, one strand shown
Medium: in vitro
Concentration: not given
Setting: k-mer, scored over probes, only values ≥0.25
Direction: higher = stronger binding
Strand	E-score
CAAATAA	0.258
CAATCGA	0.287
GATAATC	0.321
ATAGATA	0.288
AATTAGA	0.319
GTATTGA	0.362
AAGACAA	0.339
ATAATCA	0.335
TTATGAA	0.3
ACTATTG	0.301
TATAATA	0.39
AATTGCG	0.253

Block 2
Target: RNA binding protein fox-1 homolog 2, RRM domain, GST-SBP tag (RBFOX2, Homo sapiens, UniProt O43251-10, residues 100-194)
Method: RNA Bind-n-Seq
Molecule type: RNA
Medium: in vitro
Concentration: 365 nM
Setting: natural RNA segment, single round, ends assumed
Reference: no-protein control
Direction: higher = stronger binding
Construct (chain): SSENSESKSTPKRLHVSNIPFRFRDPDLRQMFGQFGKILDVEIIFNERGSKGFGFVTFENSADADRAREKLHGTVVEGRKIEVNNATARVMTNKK
Strand	RBNS enrichment (R)
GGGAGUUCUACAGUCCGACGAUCAGAGCAUUAAGCUAAAACUAUCAACAUUUUAAACCAAAUUGCCUUAUUUUUCUUCCAAACUUCAUAUAUGUCUAUCAGGUAAUAAUAGGCUUGAAAAUUGAUAUCCUGUGUGGAAUUCUCGGGUGCCAA	0.705
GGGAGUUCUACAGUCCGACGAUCGUGGUGGCCUGGGCUGCUGAUGGAGGGGAAGCACCAGUAUCUAGGUGUCUUUGGUAGGGGUGUAUUUUUAUUACACAGAGUUUUUGAACAUAUAGGGACCCCACCAAGAGUGGAAUUCUCGGGUGCCAA	0.814
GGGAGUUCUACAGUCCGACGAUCAUCCCCUUACAUUUCUAGCACACCUUGGCCAUCACAGUAGACAAAGAAUACAGAGAAGGCAGUGGGUUAGGCAGUGGGGGAUGGGUUUUUGGUUUUUUUUUUGUUUUUUUUGGAAUUCUCGGGUGCCAA	1.59
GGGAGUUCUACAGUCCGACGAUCUUCUGUUGGCCACCAGACUUGCAUUUCAGCCUCUGUCAUAAUGCUCUGCCCUCCCUCCCCCGAAGGUCUCUGUGGUGAUGACCGCUCUCCCCUGCCCCUCCCCGCUUCCUUGGAAUUCUCGGGUGCCAA	0.725
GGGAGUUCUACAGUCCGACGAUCGUCAAUGCAAUUGUGGCCAUCUGGCCACAAGCUCCAAGGGACUUACAAGCUCAAGGGCCAGAGCCCAGAGACCCAUUUUCCCCUCCAAGGAGUGGGGCAGGAAGGGUCUCUGGAAUUCUCGGGUGCCAA	0.351
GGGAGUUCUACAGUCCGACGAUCUCUUAAUCAGUAAAUGUUCACUGGCAUUUUGAAGGCAUGGCCCAAGAGAAGAGACACUAGCCAUAAAAUCUAGUUUCUAUUUAUCAACGUGUUGUGAAGAUGUACCUAAUUGGAAUUCUCGGGUGCCAA	0.373
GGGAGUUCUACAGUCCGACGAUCCUAAUCCACCUUGCAUCCUGCUGUCCAGGUGGACUUCUGUUAGGGACCCAAGGGCCCUUUGGUGUGUAGUGUACAGCACCUUAUUUUAGCAUCAAUAAAUCCAUUAUCCAUGGAAUUCUCGGGUGCCAA	0.541
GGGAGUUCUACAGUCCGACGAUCUCUAGGGCUGCUAUGGUCACUAACACACUGAUUCUCCUUAAAGUAAUUCUCGAAGUGUGGAACAAAGUGACCGAGACAGCAUCCUCAGUCAUCUUUGUCUCCUUCCCUGGUGGAAUUCUCGGGUGCCAA	0.302
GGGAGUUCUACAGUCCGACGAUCCAAAUCCUAGAGCCAGCUGAUAAUAUUUAAUAAUCUGGAGGAGAGAAUAAUGAUGUACCAAUAAGUGGAGAUUCCUCCUUAUGAUGUAUGCUAGGUUAUGGAAGAUGUAAUGGAAUUCUCGGGUGCCAA	2.83
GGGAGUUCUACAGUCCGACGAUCCCUUCGUCAUCUGUGGAUCCAUCCAGAACAGCGGUAUCUGAAGCCCAGGCCAUACUCCCUGCCUCCUUUCUUCUGCCUACCAGAGGCUCCAGAGUUGAGCUUGUCCUUAUUGGAAUUCUCGGGUGCCAA	0.489
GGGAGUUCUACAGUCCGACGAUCGUUCCUUUGUAUACAAAUUUCAGCAGCUAGGAUAUGUCACCCUUCAGUACUACAAAGUACAGAAAUUCCUAGAAUAUAAUCAUUCUCACAGAAUAGAUACCAAGAAAAAGUGGAAUUCUCGGGUGCCAA	0.523
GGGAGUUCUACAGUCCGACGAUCUAUUAUAUUCUUUAAACUUACUGUUUUACAAAAUUGAGCUCAUCGUAAAUGUCUAGUCUUCUCACAUAGAGAUUAACCAACAAACUUGUGUGGCUGACUUUUGUGUAAGAUGGAAUUCUCGGGUGCCAA	0.473

Block 3
Target: MAFF, bZIP domain (human)
Method: DHFR protein complementation
Medium: yeast
Setting: single substitutions, most at no-binding floor
Reference: wild-type JUN-FOS pair
Direction: higher = stronger binding
Starting sequence: JUN, bZIP domain (human); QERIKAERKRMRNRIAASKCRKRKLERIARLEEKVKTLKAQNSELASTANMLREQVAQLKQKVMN; partner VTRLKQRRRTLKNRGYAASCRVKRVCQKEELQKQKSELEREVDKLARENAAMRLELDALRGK
Variant	binding fitness [natural log]
L38P	-1.49
A57G	-1.36
A29T	-1.34
Q55R	-1.26
S43C	-1.4
I28S	-1.54
K39W	-1.48
E44M	-1.46
K34C	-1.42
L38T	-1.49
A40E	-1.45
A49D	-1.36
A46V	-1.47

Block 4
Target: Fragile X messenger ribonucleoprotein 1, C-terminal low-complexity region (Fmr1, Mus musculus, UniProt P35922)
Method: RNA Bind-n-Seq
Molecule type: RNA
Medium: in vitro
Concentration: 200 nM
Setting: whole 134-nt RNA, ends assumed
Together with: 150 mM KCl
Reference: input library
Direction: higher = stronger binding
Strand	log2 enrichment
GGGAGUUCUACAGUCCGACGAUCAAGUCCUGUGCUACACAUCGUAUGUACCGAAUCGGGGAGGGGUUUUUGGGGAGGGGAAAGUAUUAUGUUACGCCGUUCGGAUCUGCACUUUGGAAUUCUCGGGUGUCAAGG	1.31
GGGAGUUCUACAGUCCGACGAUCUGCCGUGCCGGGUGGACGGUCUGCUCGCCUGUCUGCGUGACGAAACUGAGGCACAAAGACGCGCUAUGCCAGCGGCGGGUAUAGCAAGGGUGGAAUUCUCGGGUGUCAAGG	-0.637
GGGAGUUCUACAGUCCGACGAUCAGUCCUGUGCUACACAUCGUAUGUACCGAAUCGGGGAAAAAGGAAAAAGGAAAAAGGAAAGUAUUAUGUUACGCCGUUCGGAUCUGCACUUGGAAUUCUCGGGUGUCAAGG	-0.669
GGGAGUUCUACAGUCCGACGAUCUGGGAGGUGGAUUUUGUUUAUUUUUUUAGCUCAUUUCCAGGGGUGGGAAUUUUUUUUUAAUAUGUGUCAUGAAUAAAGUUGUUUUUGAGAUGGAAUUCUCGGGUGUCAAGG	0.641
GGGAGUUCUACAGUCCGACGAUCCAAGUCCUGUGCUACACAUCGUAUGUACCGAAUCGGAAAAAAAGGAGGAAAAAGGAAAGUAUUAUGUUACGCCGUUCGGAUCUGCACUUCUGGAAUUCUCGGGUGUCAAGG	-0.579
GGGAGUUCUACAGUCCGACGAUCCAAGUCCUGUGCUACACAUCGUAUGUACCGAAUCGGAAAGGAAAAAGGAAAAAGGAAAGUAUUAUGUUACGCCGUUCGGAUCUGCACUUCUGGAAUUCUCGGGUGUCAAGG	-0.746
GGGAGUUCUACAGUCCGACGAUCGCAGGAAGUAAAAACAAAUGGAAGUGCUUCGGAUAGUGGCAGGGGUGGGGGUUGCUAAGGAAAGGGUGGGAUGGGAGUGGGUAAAGAGUUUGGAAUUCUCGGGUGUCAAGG	0.596
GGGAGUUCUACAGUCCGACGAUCCAAGUCCUGUGCUACACAUCGUAUGUACCGAAUCGGGUGGGAAAAAGGGAAAGGGAAAGUAUUAUGUUACGCCGUUCGGAUCUGCACUUCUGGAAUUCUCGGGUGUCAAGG	0.67
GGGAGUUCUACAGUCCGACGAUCUCCUGUGCUACACAUCGUAUGUACCGAAUCAAAUUUUUAAACCCCCAAAUUUUUUUAAAAAAGUAUUAUGUUACGCCGUUCGGAUCUGCAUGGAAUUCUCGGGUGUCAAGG	0.606
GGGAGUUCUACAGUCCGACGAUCUGGGAGACGAUCGCGAUGAACACGGUGCUGUCGCGGGCGAACUCACUGUUCGCCUUCUCGCUGAGCGUGAUGGCGGCGCUCACCUUCGGCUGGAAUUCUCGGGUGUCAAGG	-1.57
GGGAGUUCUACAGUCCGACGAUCGCAGGAAGUAAAAACAAAUGGAAAUGCUUCGGAAAAUGGCAGGGGUGGGGGUUGCUAAGGAAAGGGUGGGAUGGGAGUGGGUAAAGAGUUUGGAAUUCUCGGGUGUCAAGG	0.437
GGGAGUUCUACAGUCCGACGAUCCCUGUGCUACACAUCGUAUGUACCGAAUCGGGGUGGGGUUUUUUUGGGGAAAAAAAGGGGAAAGUAUUAUGUUACGCCGUUCGGAUCUGCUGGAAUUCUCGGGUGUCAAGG	0.361
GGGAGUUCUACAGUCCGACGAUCCCUGUGCUACACAUCGUAUGUACCGAAUCGGGAAAAAAAGGAAAAAAAGGAAAAAAAGGGAAAGUAUUAUGUUACGCCGUUCGGAUCUGCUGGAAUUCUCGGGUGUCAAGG	-0.626
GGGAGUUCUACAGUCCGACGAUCAAGUCCUGUGCUACACAUCGUAUGUACCGAAUCGGGCCCCGGGGCCCCGGGCCCCGGAAAGUAUUAUGUUACGCCGUUCGGAUCUGCACUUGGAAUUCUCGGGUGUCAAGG	0.942

Block 5
Target: CCNB3, cyclin fold, Cln2 fusion (human)
Method: yeast growth competition, sequencing
Medium: yeast
Setting: weak parent motif
Reference: not given
Direction: higher = stronger binding
Starting sequence: LLGL2 docking peptide (human); KSLKKSLRQSFRR; partner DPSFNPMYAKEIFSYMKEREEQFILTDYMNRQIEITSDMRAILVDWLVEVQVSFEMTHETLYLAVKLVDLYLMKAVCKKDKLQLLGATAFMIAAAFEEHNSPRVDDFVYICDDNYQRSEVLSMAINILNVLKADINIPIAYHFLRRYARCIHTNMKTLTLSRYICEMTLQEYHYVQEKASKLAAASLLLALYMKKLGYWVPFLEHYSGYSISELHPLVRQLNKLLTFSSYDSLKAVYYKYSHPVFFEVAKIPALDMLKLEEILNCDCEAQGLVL
Variant	normalised enrichment score
K5A	0.489
R12A	0.598
S6A	-0.0852
S2A	0.145
K4A	0.463
R8A	0.127

Block 6
Target: UBE2H UBC core domain (UniProt P62256)
Chain of UniProt P62256 (whole entry, looked up): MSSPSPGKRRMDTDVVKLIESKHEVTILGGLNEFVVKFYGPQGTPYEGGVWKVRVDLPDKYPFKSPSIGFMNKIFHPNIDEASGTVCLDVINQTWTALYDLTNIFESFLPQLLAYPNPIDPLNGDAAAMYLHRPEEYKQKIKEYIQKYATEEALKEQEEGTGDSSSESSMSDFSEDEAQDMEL
Method: yeast two-hybrid
Medium: yeast
Setting: mostly zero background
Reference: not given
Direction: higher = stronger interaction
B1: RNF32 RING domain (UniProt Q9H0A6); chain VQALRRETHECSICLAPLSAAGGQRVGAGRRSREMALLSCSHVFHHACLLALEEFSVGDRPPFHACPLCRSCYQKKILEC
B2: RNF17 RING domain (UniProt Q9BXT8); chain SQPWGAAEIQCTRCGRRVSRSSGHHCELQCGHAFCELCLLMTEECTTIICPDCEVATAVNTRQR
B3: CBLL1 RING domain (UniProt Q75N03); chain GEKDDTPVHFCDKCGLPIKIYGRMIPCKHVFCYDCAILHEKKGDKMCPGCSDPVQRIEQCT
B4: ARIH1 RING domain (UniProt Q9Y4X5); chain NTRSSAQDMPCQICYLNYPNSYFTGLECGHKFCMQCWSEYLTTKIMEEGMGQTISCPAHGCDILVDDNTVM
B5: SHPRH RING domain (UniProt Q149N8); chain KTSGGVNPEPCPICARQLGKQWAVLTCGHCFCNECISIIIEQYSVGSHRSSIKCAICRQTTSHKEISY
B6: TRIM28 RING domain (UniProt Q13263); chain GAEALELLEHCGVCRERLRPEREPRLLPCLHSACSACLGPAAPAAANSSGDGGAAGDGTVVDCPVCKQQCFSKDIVE
B7: RNF115 RING domain (UniProt Q9Y4L5); chain TQEQVDMGLECPVCKEDYTVEEEVRQLPCNHFFHSSCIVPWLELHDTCPVCRKSLNGEDSTR
Sequence	lacZ reporter activity
B1 (RNF32 RING domain)	0
B2 (RNF17 RING domain)	0
B3 (CBLL1 RING domain)	0
B4 (ARIH1 RING domain)	0
B5 (SHPRH RING domain)	0
MEEMEEELKCPVCGSFYREPIILPCSHNLCQACARNILVQTPESESPQSHRAAGSGVSDY (TRIM9 RING domain (UniProt Q9C026))	0
B6 (TRIM28 RING domain)	0
B7 (RNF115 RING domain)	0
EDVLSKDAGECAICLEELQQGDTIARLPCLCIYHKGCIDEWFEVNRSCPEHPSD (ZNRF2 RING domain (UniProt Q8NHG8))	0
EIKDYKARLTCPCCNMRKKDAVLTKCFHVFCFECVKTRYDTRQRKCPKCNAAFGANDFHR (RNF20 RING domain (UniProt Q5VTR2))	0
FLSKVEETFQCICCQELVFRPITTVCQHNVCKDCLDRSFRAQVFSCPACRYDLGRSYAMQ (UHRF1 RING domain (UniProt Q96T88))	0

For quick reference, copied from above (block 3):
Variant	binding fitness [natural log]
L38P	-1.49
A57G	-1.36
A29T	-1.34
Q55R	-1.26
S43C	-1.4
I28S	-1.54
K39W	-1.48
E44M	-1.46
K34C	-1.42
L38T	-1.49
